# Assay results gathered from unrelated publications.
# Compare with care: the assays were run in different laboratories. ± marks the error that the study gave.
SMILES,tested on,test,test system,setting,measurement,result
CCc1nn(C)c2nc(-c3ccc(F)c(C(=O)O)c3)nc(NCc3ccc(F)cc3)c12,Cryptosporidium parvum,"parasite growth, high-content microscopy","HCT-8, Iowa",concentration not given,anti-parasitic activity,not toxic
Cc1ccc(-c2cc(-c3ccc(OCc4ccccc4)cc3)nc3c(N=Nc4ccc(F)cc4)c(N)nn23)cc1,Saccharomyces cerevisiae,broth microdilution,ATCC 9763,,MFC/MIC ratio,2
CCNC(=O)CCC/C=C\C[C@@H]1[C@@H](/C=C/[C@@H](O)CCc2ccccc2)[C@H](O)C[C@@H]1O,Campylobacter concisus,,,1 other congeners,congener production,increased
O=C(NCc1ccc(OC(F)(F)F)cc1)c1cn(Cc2ccc(F)cc2)c2ccc(Oc3ccccc3)cc2c1=O,Jurkat,,,72 h,CC50,47.6 ± 10.5 µM
CCc1nn(C)c2nc(-c3ccc(P(=O)(O)O)cc3)nc(NCc3ccc(F)cc3)c12,Cryptosporidium parvum,"parasite growth, high-content microscopy","HCT-8, Iowa",concentration not given,anti-parasitic activity,inactive
COc1cc(-c2nc3ccccc3c(=O)n2Nc2ccc([N+](=O)[O-])cc2[N+](=O)[O-])ccc1OCc1cn(CC(=O)Nc2cccc(C)c2C)nn1,mushroom tyrosinase,enzyme activity,,"40 µM, together with: L-DOPA",inhibition,55.4 ± 5.89%
COc1ccc(N=Nc2c(N)nn3c(-c4ccc(C)cc4)cc(-c4ccc(OCc5ccccc5)cc4)nc23)cc1,Enterococcus faecalis,broth microdilution,MTCC 0459,,MBC,31.3 µg/mL
CCc1nn(C)c2nc(-c3ccc4c(c3)COB4O)nc(NCc3ccc(F)cc3)c12,Cryptosporidium parvum,parasite growth,"HCT-8, Iowa",,EC50,0.19 µM
CCOc1c([C@H](C)n2nc(C)c3c(N)ncnc32)cc(Cl)c(F)c1[C@@H]1CNC(=O)C1,,,"patients with DLBCL, plasma","oral, 20 mg, day 15, monotherapy",half-life geometric mean,9.3 ± 0.979 h
O=C(O)c1cn(Cc2ccc(C(F)(F)F)cc2)c2ccc(Oc3ccccc3)cc2c1=O,MDA-MB-468,,,72 h,CC50,> 100 µM
Cc1ccc(N=Nc2c(N)nn3c(-c4ccc(C)cc4)cc(-c4ccc(OCc5ccccc5)cc4)nc23)cc1,Enterococcus faecalis,broth microdilution,MTCC 0459,,MBC/MIC ratio,4
CCc1nn(C)c2nc(-c3ccc4c(c3)CNC4=O)nc(NCc3ccc(F)cc3)c12,Cryptosporidium parvum,"parasite growth, high-content microscopy","HCT-8, Iowa",concentration not given,anti-parasitic activity,inactive
COc1cc(/C=N/NC(=S)N/N=C/c2ccc(C)cc2)ccc1Oc1ccnc2cc(Cl)ccc12,human lysosomal acid alpha-glucosidase,inhibitor,,together with: pNPG substrate,IC50,14.8 ± 0.15 µg/mL
CC(C[N+](C)(C)C)OC(N)=O (stereo not shown),Campylobacter concisus,,,1 other congeners,congener production,increased
O=C(Nc1cc(-c2ccc(Cl)cc2)[nH]n1)C1CCCCC1,phosphorylase kinase,enzyme activity,,10 µM,remaining activity,75%
COCCOc1cnc2ccn([C@H](C)c3nnc4c(F)cc(-c5cnn(C)c5)cn34)c(=O)c2c1,,,patients,"oral, 300 mg once daily, day 1, expansion",t1/2,9.3 h
Nc1nn2c(-c3ccc(Cl)cc3Cl)cc(-c3ccc(OCc4ccccc4)cc3)nc2c1N=Nc1ccc(F)cc1,Bacillus pumilus,broth microdilution,MTCC 2296,,MBC/MIC ratio,2
OO,MDA-MB-231-LM2-4,JC-1 flow cytometry,,"1 mM, 5 h, positive control",depolarized mitochondria cells,49%
COc1cc(/C=N/NC(=S)NN=Cc2ccc([N+](=O)[O-])o2)ccc1Oc1ccnc2cc(Cl)ccc12,"Aldo-keto reductase family 1 member B1 (AKR1B1, Homo sapiens, UniProt P15121)",Lineweaver-Burk kinetics,,4.90 µg (IC60),Km,4.08 mM
